Measured values pooled from the literature.
Numbered parts are unrelated; each lists some results of a single study. Substitutions count along the parent as printed.

Study 1 — method: protein-binding microarray; form: double-stranded DNA, one strand shown; sample: in vitro; concentration: not given; direction: higher = stronger binding; measurement: E-score
Target: Max dimerization protein 1, bHLH-zipper, MAX partner unstated (MXD1, Homo sapiens, UniProt Q05195, residues 56-136)
Notes: k-mer, scored over probes, only values ≥0.25
Residues (chain): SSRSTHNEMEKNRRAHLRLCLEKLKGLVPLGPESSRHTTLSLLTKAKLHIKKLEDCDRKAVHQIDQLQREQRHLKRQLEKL
Oligonucleotide = GCCTCCCC; result = 0.384
Oligonucleotide = AGGGGAGG; result = 0.269
Oligonucleotide = ACGGGGTA; result = 0.31
Oligonucleotide = CATGGTCA; result = 0.324
Oligonucleotide = CACGTGCA; result = 0.491
Oligonucleotide = CGTGCTCA; result = 0.385
Oligonucleotide = CCCCCTTA; result = 0.275
Oligonucleotide = CCTCCTCC; result = 0.3
Oligonucleotide = ACATTGTG; result = 0.285
Oligonucleotide = CACATGTA; result = 0.461
Oligonucleotide = GCTAACCA; result = 0.254
Oligonucleotide = ATAACATG; result = 0.278
Oligonucleotide = CACGTGGA; result = 0.49
Oligonucleotide = ACCTCGTG; result = 0.418
Oligonucleotide = AGCGTGTA; result = 0.318
Oligonucleotide = AACACATG; result = 0.447

Study 2 — target: CCNE2, cyclin fold, Cln2 fusion (human); method: yeast growth competition, sequencing; sample: yeast; notes: strong parent motif; baseline: not given; direction: higher = stronger binding; measurement: normalised enrichment score
Starting sequence: RBL1 docking peptide (human); GSAKRRLFGEDPP; partner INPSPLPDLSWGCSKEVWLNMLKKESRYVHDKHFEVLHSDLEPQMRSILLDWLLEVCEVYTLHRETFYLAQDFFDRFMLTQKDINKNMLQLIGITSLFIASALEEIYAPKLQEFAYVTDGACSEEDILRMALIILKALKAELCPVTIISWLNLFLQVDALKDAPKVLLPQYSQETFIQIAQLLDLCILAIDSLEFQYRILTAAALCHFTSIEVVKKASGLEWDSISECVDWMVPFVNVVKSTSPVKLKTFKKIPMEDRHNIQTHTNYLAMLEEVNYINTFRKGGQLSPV
Change = G9E; result = 5.7
Change = F8H; result = 0.412
Change = G9V; result = 6.29
Change = D11L; result = 3.29
Change = P13T; result = 4.55
Change = G1L; result = 5.67
Change = E10D; result = 4.85
Change = A3R; result = 0.768
Change = L7A; result = 0.0685
Change = P12R; result = 4.03
Change = P13E; result = 3.07
Change = P13H; result = 4.61
Change = F8Q; result = 0.064
Change = G9C; result = 5.93
Change = P12T; result = 4.66
Change = G9P; result = 4.67
Change = P12H; result = 3.85
Change = K4G; result = 0.00111
Change = G1T; result = 4.91
Change = R6H; result = 1.18
Change = A3K; result = 1.28
Change = S2E; result = 2.87
Change = G1Y; result = 4.97
Change = P13M; result = 3.92
Change = P13W; result = 4.57

Study 3 — method: RNA Bind-n-Seq; form: RNA; sample: in vitro; concentration: 15 pmol; notes: 4-mer, random 30-nt RNA, single round; with: DMSO vehicle, 2 mM AMP-PNP; baseline: input library; direction: higher = stronger binding; measurement: 4-mer enrichment
Target: Eukaryotic initiation factor 4A-I (EIF4A1, Homo sapiens, UniProt P60842, residues 1-406, full length assumed)
Chain of UniProt P60842 (whole entry, looked up): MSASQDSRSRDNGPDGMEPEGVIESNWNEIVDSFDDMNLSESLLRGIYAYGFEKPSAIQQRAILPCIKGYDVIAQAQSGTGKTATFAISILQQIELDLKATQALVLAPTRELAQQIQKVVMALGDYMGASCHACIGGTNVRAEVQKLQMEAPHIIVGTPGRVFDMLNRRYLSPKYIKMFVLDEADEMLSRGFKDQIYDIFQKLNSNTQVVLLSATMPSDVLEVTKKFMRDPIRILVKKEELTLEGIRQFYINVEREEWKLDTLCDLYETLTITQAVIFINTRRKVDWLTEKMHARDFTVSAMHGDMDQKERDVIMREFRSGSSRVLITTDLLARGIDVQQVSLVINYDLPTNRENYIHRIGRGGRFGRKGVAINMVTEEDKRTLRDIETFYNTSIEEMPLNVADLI
Oligonucleotide = UACU; result = 0.816 fold
Oligonucleotide = CCGU; result = 1.31 fold
Oligonucleotide = UGUC; result = 0.893 fold
Oligonucleotide = ACCU; result = 1.09 fold
Oligonucleotide = GACC; result = 2.01 fold
Oligonucleotide = AGUU; result = 0.794 fold
Oligonucleotide = AUGU; result = 0.816 fold
Oligonucleotide = CUGG; result = 1.41 fold
Oligonucleotide = UAAU; result = 0.829 fold
Oligonucleotide = ACCG; result = 1.46 fold
Oligonucleotide = GGGU; result = 0.901 fold
Oligonucleotide = GCCU; result = 1.47 fold
Oligonucleotide = CGCC; result = 1.99 fold
Oligonucleotide = GGGC; result = 0.72 fold
Oligonucleotide = GAUG; result = 0.965 fold
Oligonucleotide = CACC; result = 1.55 fold
Oligonucleotide = GGUG; result = 0.942 fold
Oligonucleotide = AGAG; result = 0.993 fold
Oligonucleotide = AGUA; result = 0.843 fold
Oligonucleotide = UCGG; result = 0.738 fold
Oligonucleotide = GUCC; result = 0.981 fold
Oligonucleotide = UCGA; result = 0.667 fold
Oligonucleotide = AAAA; result = 1.52 fold

Study 4 — method: DHFR PCA, deep sequencing; sample: yeast; with: (+)-ABA 0.11 µM; baseline: wild-type fitted maximum; direction: higher = stronger binding; measurement: relative binding score
Target: ABI1, truncated, D143A, DHFR fusion (Arabidopsis thaliana)
Notes: methotrexate growth selection, single substitutions
Starting sequence: PYL1, truncated, DHFR fusion (Arabidopsis thaliana); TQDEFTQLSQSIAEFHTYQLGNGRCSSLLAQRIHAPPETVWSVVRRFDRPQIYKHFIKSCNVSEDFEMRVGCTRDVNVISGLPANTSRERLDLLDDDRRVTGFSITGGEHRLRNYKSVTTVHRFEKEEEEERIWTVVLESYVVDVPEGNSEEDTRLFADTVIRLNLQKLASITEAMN
Change = Y18D; result = 0.992%
Change = N177G; result = 39.2%
Change = A13P; result = -0.459%
Change = L91T; result = 7.66%
Change = I57G; result = -1.59%
Change = S140K; result = -11.4%
Change = N85F; result = 65.1%
Change = F157V; result = 9.96%
Change = D65G; result = 28.1%
Change = N22E; result = 47.5%
Change = I57C; result = -5.02%
Change = D153K; result = 2.96%
Change = E174C; result = 5.03%
Change = Q31A; result = 0.353%
Change = Y18N; result = -0.571%
Change = C72G; result = 3.03%
Change = L166Q; result = 5.35%
Change = W41F; result = -2.64%
Change = G81A; result = 10.3%
Change = G71A; result = 2.53%
Change = I162E; result = 4.59%
Change = S27E; result = 2.65%
Change = E127V; result = 35.8%
Change = R88P; result = -3.56%

Study 5 — method: RNA Bind-n-Seq; form: RNA; sample: in vitro; concentration: 100 nM; baseline: input RNA pool; direction: higher = stronger binding; measurement: bound/input enrichment
Target: RING finger protein unkempt homolog, zinc fingers 1-6, SBP tag (UNK, Homo sapiens, UniProt Q9C0B0, residues 30-357)
Chain of UniProt Q9C0B0 (30-357, looked up): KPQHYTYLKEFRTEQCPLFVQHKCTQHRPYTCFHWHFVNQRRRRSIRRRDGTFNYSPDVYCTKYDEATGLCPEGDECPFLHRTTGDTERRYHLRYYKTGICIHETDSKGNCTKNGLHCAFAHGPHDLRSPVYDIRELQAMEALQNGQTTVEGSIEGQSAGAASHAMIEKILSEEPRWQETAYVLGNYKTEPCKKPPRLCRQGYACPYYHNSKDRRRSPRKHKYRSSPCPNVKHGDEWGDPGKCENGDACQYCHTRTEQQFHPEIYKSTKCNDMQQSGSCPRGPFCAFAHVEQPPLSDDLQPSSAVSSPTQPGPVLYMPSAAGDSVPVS
Notes: RNA with constant flanks, vertebrate orthologous sites, ends assumed
Shared flanks, not repeated: GGGAGUUCUACAGUCCGACGAUC … CAACAGAGGAUUGAGCAUCA
Oligonucleotide = CAGGGUGGGACCCGGGACCCGCGGCUCAGUGGUCCGCUAGCCACGUCAGCCAAGCCACUUUAGGUCCAUUUUUUUAUUUUAACAGUGCUCUUCCAUCUUGUGCAUAAGCCUGAGAUUCGG; result = 1.19 ratio
Oligonucleotide = AGUUUGUAUGUACAUUAUUCACAUUCCUCUCUGUUGUGUUUUGGGGGAAAAAAAGACAUUUUAGCCUUUUUUAAGGUUAUUGAUUUAAUUUUAUGUUAUUUGGUUGCAUGAAGUUGCCCU; result = 0.448 ratio
Oligonucleotide = CUGCUGACUCGCUCAUCGGGAGAGCCGCACACAUAGCUGUUCUUGAUUCGGAAAUAUUUUUAGAGAAGUUUUUUCUGGUUGCUGCCCUCAAAUAUUUCCAGUAGGACAGAAGCAUCAUUA; result = 0.479 ratio
Oligonucleotide = UUUAAUUGAUCAGGGCUGUAAAUGUAUAUUGAGAGAAUCAGAGUAUUUAUAUAAACAGAGGCAUUUAUUUAAAGAAAAGGGUCAUUCCUCUUUCAUAUGGUGAUCUGUAUUAAUUCCAUU; result = 0.651 ratio
Oligonucleotide = CGUGUCCUUGCUACUGUGAUAUUUAAAAUAUCCACAGUACUCACUUCUUCCAAAUGAUUCUAACAGUUGCUUAGAAGUGUCUUUCUCUUACCUGUUAUUUAUCAAUUUUUCUCAGUAUUU; result = 0.418 ratio
Oligonucleotide = CGCAUGAGCAUCUAUCCAGUUUUAAGCCACUUCCUGAUAAGGCUCUCCAUGUAUUUAUCCUAUUGACACCCCUGUUUUAUGAAUGGCAGUGUGAGUGCCGAGGGGCUCGGUGUUUACAGC; result = 0.45 ratio
Oligonucleotide = GUGCAAGGAGAUUAUUCCAACUAGUGAAUUUAUUAACAGUAAGUUGACAGCAAAAGCAAAUAGGCAGCUUCAAGAUCCUUUAGUAAUCAUGACAGGAAACAUCCCAACAUGGCUCACUGA; result = 0.908 ratio
Oligonucleotide = AAAAAUGCCUUUCCUUUUUUAAAAGUUAAGCGGAUCAUCUGAGAAGAGUACAAGGUUAUUAGAAUGCCUUUGUGGUUAAGUCACAGUAUAUUGUUUUUGGUUGUUUGAUAGGUUUAUUUU; result = 0.392 ratio
Oligonucleotide = AUUUUAAAUGUGUCAAAUGCUGGAUGUAACAUUAAACCAUCAUUUAGAAUAGAUGUUAAUUUGUUAUAAUUAAGCUACAAAUAGGUUACCUUAAACCAGAGAUGCACUGCCCUUGUCUGA; result = 0.659 ratio
Oligonucleotide = AUUUAGAAUCUUAGUAAAUUGCUCCAAGAUUCUUAAAGUCAGUUUUGUAAGAUCAGACCAUAGGUUGGUGUUCUUUUAAGCUUGUGUACUGUGUCCAACGUCACAUUUUUUAAAGUGUUC; result = 0.305 ratio
Oligonucleotide = AAAUUUAUUUCAUGCCCUGGACUCCCUACCGCACUGAUACUUUGAUAGAAUUUGCUUCCUUAGAAGAUUUCCAAAACAGUCGCCAAACAACAACUUACAAACUUCCAAAUCGAGUAGAUG; result = 1.17 ratio

For quick reference, copied from above (study 4):
Change = Y18D; result = 0.992%
Change = S140K; result = -11.4%
Change = L166Q; result = 5.35%
Change = R88P; result = -3.56%
Change = E174C; result = 5.03%
Change = E127V; result = 35.8%
Change = W41F; result = -2.64%
Change = G81A; result = 10.3%
Change = D153K; result = 2.96%
Change = N85F; result = 65.1%
Change = I162E; result = 4.59%
Change = L91T; result = 7.66%
Change = D65G; result = 28.1%
Change = I57C; result = -5.02%
Change = N22E; result = 47.5%
Change = F157V; result = 9.96%
Change = C72G; result = 3.03%
